Measurements from different studies.
Compare with care: the assays were run in different laboratories. ± marks the error that the study gave.
Adapter molecule crk SH2 domain: Adapter molecule crk, SH2 domain (Homo sapiens, UniProt P46108)
Sequence of UniProt P46108 (whole entry, looked up): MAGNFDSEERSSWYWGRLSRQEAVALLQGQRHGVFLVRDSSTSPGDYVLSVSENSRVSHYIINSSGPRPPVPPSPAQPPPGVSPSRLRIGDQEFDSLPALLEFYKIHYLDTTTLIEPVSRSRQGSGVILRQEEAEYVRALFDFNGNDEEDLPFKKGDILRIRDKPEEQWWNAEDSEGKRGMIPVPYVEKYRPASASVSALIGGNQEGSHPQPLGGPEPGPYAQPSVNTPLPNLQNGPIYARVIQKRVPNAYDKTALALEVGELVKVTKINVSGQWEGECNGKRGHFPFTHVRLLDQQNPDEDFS
Signal transducer and activator of transcription 2 SH2 domain: Signal transducer and activator of transcription 2, SH2 domain (Homo sapiens, UniProt P52630)
Sequence of UniProt P52630 (whole entry, looked up): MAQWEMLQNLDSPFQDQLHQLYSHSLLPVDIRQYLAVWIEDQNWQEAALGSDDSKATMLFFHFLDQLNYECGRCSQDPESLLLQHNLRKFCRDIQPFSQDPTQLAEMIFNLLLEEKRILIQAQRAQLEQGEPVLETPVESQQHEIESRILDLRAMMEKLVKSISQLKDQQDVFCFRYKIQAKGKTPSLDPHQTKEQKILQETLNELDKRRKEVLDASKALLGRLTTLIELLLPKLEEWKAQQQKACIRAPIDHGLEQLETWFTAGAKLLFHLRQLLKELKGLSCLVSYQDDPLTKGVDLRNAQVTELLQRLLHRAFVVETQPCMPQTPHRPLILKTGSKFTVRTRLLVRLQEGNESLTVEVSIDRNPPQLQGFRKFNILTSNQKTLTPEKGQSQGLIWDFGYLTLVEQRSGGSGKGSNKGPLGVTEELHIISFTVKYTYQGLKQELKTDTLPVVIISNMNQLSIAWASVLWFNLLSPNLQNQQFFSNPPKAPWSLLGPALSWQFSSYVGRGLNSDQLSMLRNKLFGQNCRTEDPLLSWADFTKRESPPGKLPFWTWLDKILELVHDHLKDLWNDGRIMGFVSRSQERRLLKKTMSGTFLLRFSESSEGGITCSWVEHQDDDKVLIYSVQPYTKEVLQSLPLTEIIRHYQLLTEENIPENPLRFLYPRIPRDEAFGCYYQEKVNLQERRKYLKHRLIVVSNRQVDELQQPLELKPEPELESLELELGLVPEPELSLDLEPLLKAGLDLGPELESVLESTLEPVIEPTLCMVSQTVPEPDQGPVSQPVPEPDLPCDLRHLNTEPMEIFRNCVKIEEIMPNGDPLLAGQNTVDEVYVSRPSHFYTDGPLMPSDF
srtA: srtA (Staphylococcus aureus, UniProt Q2FV99)
Sequence of UniProt P04756 (whole entry, looked up): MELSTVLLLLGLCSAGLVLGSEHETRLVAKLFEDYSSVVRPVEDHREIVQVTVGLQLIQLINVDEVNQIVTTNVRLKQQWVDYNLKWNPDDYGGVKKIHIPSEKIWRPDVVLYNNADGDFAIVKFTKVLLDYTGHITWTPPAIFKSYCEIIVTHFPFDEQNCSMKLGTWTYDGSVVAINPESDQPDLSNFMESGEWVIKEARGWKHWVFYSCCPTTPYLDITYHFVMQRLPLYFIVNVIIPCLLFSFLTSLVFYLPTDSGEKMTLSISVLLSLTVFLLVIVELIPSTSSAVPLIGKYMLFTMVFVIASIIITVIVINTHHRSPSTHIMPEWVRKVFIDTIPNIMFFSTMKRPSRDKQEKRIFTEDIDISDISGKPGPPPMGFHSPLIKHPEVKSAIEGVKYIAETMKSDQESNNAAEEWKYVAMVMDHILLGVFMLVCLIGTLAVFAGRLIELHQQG
Sequence of UniProt P25123 (whole entry, looked up): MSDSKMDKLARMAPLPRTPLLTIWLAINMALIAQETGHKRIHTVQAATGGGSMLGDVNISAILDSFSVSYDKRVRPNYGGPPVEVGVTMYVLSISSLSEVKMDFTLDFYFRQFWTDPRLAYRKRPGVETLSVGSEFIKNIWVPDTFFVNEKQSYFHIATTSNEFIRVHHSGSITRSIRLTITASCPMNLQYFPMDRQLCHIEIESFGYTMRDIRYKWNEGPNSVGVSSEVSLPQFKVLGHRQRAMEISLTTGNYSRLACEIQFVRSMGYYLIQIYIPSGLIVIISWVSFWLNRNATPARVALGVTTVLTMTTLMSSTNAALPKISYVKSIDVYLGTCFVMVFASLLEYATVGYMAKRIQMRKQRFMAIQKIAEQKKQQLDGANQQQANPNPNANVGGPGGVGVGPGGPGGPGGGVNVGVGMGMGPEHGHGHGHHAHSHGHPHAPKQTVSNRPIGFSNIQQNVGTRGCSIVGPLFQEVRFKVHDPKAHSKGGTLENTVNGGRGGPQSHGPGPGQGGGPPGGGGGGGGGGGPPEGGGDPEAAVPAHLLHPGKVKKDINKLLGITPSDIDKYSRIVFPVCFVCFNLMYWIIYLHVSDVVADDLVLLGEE
Sequence of UniProt P42681 (whole entry, looked up): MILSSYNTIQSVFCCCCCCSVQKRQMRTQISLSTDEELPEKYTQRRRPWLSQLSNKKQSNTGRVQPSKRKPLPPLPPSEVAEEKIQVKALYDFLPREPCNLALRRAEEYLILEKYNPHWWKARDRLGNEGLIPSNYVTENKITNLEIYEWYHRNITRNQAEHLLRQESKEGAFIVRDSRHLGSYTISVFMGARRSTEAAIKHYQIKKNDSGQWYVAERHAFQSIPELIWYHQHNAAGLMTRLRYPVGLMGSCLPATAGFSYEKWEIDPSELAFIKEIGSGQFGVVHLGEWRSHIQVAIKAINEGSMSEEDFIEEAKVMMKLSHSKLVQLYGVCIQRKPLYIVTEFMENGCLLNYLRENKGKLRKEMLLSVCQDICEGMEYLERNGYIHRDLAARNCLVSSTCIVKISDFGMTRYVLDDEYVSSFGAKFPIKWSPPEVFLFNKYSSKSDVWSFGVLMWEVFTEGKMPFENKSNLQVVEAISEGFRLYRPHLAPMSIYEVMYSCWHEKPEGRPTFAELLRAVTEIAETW
Sequence of UniProt P20782 (whole entry, looked up): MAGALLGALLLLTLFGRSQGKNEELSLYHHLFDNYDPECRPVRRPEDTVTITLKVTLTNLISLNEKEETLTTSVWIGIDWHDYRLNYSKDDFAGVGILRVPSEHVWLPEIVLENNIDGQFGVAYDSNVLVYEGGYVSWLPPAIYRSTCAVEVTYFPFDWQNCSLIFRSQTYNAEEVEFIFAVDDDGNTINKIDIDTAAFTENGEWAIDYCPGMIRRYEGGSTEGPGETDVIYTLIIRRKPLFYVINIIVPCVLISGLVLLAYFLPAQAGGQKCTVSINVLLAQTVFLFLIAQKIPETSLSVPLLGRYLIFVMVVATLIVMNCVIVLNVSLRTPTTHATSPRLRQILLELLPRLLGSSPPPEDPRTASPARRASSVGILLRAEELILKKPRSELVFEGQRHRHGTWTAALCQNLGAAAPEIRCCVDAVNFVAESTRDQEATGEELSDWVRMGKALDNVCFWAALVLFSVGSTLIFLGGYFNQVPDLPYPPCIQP
Sequence of UniProt A8C927 (whole entry, looked up): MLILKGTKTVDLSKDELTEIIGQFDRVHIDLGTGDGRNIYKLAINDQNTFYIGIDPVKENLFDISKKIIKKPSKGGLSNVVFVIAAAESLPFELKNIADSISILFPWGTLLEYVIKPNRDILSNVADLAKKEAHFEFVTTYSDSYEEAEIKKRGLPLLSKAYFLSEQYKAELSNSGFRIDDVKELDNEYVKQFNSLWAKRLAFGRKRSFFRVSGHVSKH
Sequence of UniProt P08510 (whole entry, unmodified, looked up): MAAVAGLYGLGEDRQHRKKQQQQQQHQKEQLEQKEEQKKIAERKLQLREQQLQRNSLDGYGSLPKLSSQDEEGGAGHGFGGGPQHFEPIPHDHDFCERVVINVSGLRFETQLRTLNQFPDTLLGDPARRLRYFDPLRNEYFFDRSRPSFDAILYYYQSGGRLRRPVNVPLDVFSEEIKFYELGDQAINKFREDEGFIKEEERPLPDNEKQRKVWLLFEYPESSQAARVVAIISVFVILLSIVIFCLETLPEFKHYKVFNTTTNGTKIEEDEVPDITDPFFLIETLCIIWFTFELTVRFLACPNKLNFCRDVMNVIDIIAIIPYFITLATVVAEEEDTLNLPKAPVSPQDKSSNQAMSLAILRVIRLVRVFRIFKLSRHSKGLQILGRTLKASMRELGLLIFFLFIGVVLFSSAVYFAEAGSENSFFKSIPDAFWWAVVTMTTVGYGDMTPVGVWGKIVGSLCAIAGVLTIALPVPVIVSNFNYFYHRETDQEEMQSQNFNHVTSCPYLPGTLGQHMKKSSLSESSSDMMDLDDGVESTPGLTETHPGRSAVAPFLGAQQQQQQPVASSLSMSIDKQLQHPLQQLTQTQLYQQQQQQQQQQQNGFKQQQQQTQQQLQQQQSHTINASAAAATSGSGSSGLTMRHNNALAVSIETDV
Sequence of UniProt P02716 (whole entry, looked up): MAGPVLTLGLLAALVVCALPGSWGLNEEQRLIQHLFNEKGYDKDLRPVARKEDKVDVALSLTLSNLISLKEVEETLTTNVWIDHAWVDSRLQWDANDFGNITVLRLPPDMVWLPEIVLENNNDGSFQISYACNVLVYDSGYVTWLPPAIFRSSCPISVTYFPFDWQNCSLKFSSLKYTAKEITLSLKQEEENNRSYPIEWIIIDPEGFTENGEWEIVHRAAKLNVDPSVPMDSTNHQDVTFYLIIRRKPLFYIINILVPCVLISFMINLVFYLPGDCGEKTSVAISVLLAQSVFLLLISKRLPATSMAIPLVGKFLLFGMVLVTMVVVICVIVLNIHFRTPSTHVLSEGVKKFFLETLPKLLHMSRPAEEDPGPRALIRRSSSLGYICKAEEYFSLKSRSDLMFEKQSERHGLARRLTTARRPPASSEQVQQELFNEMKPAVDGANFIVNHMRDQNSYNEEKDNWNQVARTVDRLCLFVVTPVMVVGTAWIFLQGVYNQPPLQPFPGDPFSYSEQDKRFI
Sequence of UniProt P00512 (whole entry, unmodified, looked up): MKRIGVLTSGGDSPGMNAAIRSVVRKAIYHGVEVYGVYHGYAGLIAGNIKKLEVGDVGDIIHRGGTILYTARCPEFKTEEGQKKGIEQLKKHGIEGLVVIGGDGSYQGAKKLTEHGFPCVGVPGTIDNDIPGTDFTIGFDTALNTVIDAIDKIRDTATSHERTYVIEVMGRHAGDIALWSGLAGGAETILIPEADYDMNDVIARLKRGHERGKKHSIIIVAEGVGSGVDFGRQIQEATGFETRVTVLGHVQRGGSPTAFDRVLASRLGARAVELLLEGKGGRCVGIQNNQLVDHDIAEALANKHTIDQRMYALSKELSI

SMILES = CSCC[C@H](N)C(=O)N[C@@H](C)C(=O)N[C@@H](C)C(=O)N[C@H](C(=O)N[C@@H](C)C(=O)NCC(=O)N[C@@H](CC(C)C)C(=O)N[C@@H](Cc1ccc(O)cc1)C(=O)NCC(=O)N[C@@H](CC(C)C)C(=O)NCC(=O)N[C@@H](CCC(=O)O)C(=O)N[C@@H](CC(=O)O)C(=O)N[C@@H](CCCNC(=N)N)C(=O)N[C@@H](CCC(N)=O)C(=O)N[C@@H](Cc1c[nH]cn1)C(=O)N[C@@H](CCCNC(=N)N)C(=O)N[C@@H](CCCCN)C(=O)N[C@@H](CCCCN)C(=O)N[C@@H](CCC(N)=O)C(N)=O)C(C)C; target or system = Sh, DEL6-46 (Drosophila melanogaster, UniProt P08510); assay = ion current, blocker, inside-out patch clamp; setting = +90 mV; measurement = Kd; value = 3.5 µM
SMILES = C[C@H](NC(=O)[C@@H](NC(=O)[C@H](CO)NC(=O)[C@H](Cc1c[nH]cn1)NC(=O)[C@@H]1CCCN1C(=O)[C@H](CC(=O)O)NC(=O)[C@H](CCC(N)=O)NC(=O)[C@H](Cc1ccc(OP(=O)(O)O)cc1)NC(=O)[C@H](Cc1c[nH]cn1)NC(=O)[C@@H]1CCCN1C(=O)[C@H](CC(=O)O)NC(=O)[C@H](CCCNC(=N)N)NC(=O)[C@H](CO)NC(=O)[C@@H]1CCCN1C(=O)[C@H](C)NC(=O)[C@@H]1CCCN1C(=O)[C@H](CC(N)=O)NC(=O)c1ccc2c(c1)C(=O)OC21c2ccc(N(C)C)cc2Oc2cc(N(C)C)ccc21)[C@@H](C)O)C(=O)N[C@@H](CC(=O)O)C(=O)O; target or system = Adapter molecule crk SH2 domain; assay = binding; measurement = Kd; value = 1.23 µM
SMILES = C=C(OP(=O)(O)O)C(=O)O; target or system = pfkA (Geobacillus stearothermophilus, UniProt P00512, T156A); measurement = Kd; value = 2.1 ± 0.1 µM
SMILES = Nc1nc2c(ncn2[C@@H]2O[C@H](COP(=O)(O)OP(=O)(O)OP(=O)(O)O)[C@@H](O)[C@H]2O)c(=O)[nH]1; target or system = GTP 3',8-cyclase (moaA, Staphylococcus aureus, UniProt P69848); assay = binding, isothermal titration calorimetry; measurement = Kd; value = 3.54 ± 0.81 µM
SMILES = CC[C@H](C)[C@H](NC(=O)[C@H](CC(=O)O)NC(=O)[C@H](C)NC(=O)[C@H](Cc1ccc(O)cc1)NC(=O)[C@H](CCCCN)NC(=O)c1ccc2c(c1)C(=O)OC21c2ccc(N(C)C)cc2Oc2cc(N(C)C)ccc21)C(=O)N[C@@H](CCC(=O)O)C(=O)N[C@@H](CO)C(=O)N[C@@H](CO)C(=O)N[C@@H](CC(N)=O)C(=O)N[C@@H](Cc1ccc(OP(=O)(O)O)cc1)C(=O)N[C@@H](CCSC)C(=O)N[C@@H](C)C(=O)N1CCC[C@H]1C(=O)N[C@@H](Cc1ccc(O)cc1)C(=O)N[C@@H](CC(=O)O)C(=O)N[C@@H](CC(N)=O)C(=O)N[C@@H](Cc1ccc(O)cc1)C(=O)N[C@@H](CC(=O)O)C(=O)O; target or system = Signal transducer and activator of transcription 2 SH2 domain; assay = binding; measurement = Kd; value = 1.89 µM
SMILES = CC[C@H](C)[C@@H]1NC(=O)[C@H]([C@@H](C)CC)NC(=O)[C@@H](Cc2ccc(O)cc2)NC(=O)CSC[C@@H](C(N)=O)NC(=O)[C@H](CCCNC(=N)N)NC(=O)[C@H](CCCCN)NC(=O)[C@H](CC(C)C)NC(=O)[C@H](CO)NC(=O)[C@H](CO)NC(=O)[C@H](CC(C)C)NC(=O)[C@H](Cc2ccccc2)NC(=O)[C@H](C(C)C)NC(=O)CNC(=O)[C@H](CC(C)C)NC(=O)[C@@H]2CCCN2C(=O)[C@H]([C@@H](C)O)NC(=O)[C@H](CC(=O)O)NC1=O; target or system = VPS35/VPS29 (Homo sapiens, UniProt Q96QK1+Q9UBQ0); assay = binding, ITC; setting = 25 °C, heterodimer; measurement = Kd; value = 0.106 ± 0.004 µM
SMILES = CC(C)C[C@H](NC(=O)[C@@H](NC(=O)[C@H](CO)NC(=O)[C@H](CO)NC(=O)[C@@H](NC(=O)[C@H](CC(=O)O)NC(=O)[C@H](CC(C)C)NC(=O)[C@@H]1CCCN1C(=O)[C@H](CO)NC(=O)c1ccc2c(c1)C(=O)OC21c2ccc(N(C)C)cc2Oc2cc(N(C)C)ccc21)[C@@H](C)O)C(C)C)C(=O)N[C@@H](Cc1ccc(OP(=O)(O)O)cc1)C(=O)N[C@H](C(=O)N[C@@H](C)C(=O)N[C@H](C(=O)N[C@@H](CCC(N)=O)C(=O)N1CCC[C@H]1C(=O)N[C@@H](CC(N)=O)C(=O)N[C@@H](CCC(=O)O)C(=O)N[C@@H](CC(=O)O)C(=O)O)C(C)C)[C@@H](C)O; target or system = Adapter molecule crk SH2 domain; assay = binding; measurement = Kd; value = 1.59 µM
SMILES = COc1cc2c3cc1Oc1cc(ccc1O)C[C@@H]1c4c(cc(OC)c(O)c4Oc4ccc(cc4)C[C@@H]3N(C)CC2)CC[N+]1(C)C; target or system = Chrnd/Chrna1/Chrne (Mus musculus, UniProt P02716+P04756+P20782); assay = endplate current peak height, inhibitor, two-electrode voltage clamp; test system = mouse hemidiaphragm; measurement = Kd; value = 0.04 µM
SMILES = CC[C@H](C)[C@H](NC(=O)[C@H](CCCNC(=N)N)NC(=O)CNC(=O)[C@H](Cc1c[nH]c2ccccc12)NC(=O)[C@@H]1CSC[C@@H](NC(=O)[C@H](Cc2ccc(O)cc2)NC(=O)[C@H](Cc2c[nH]c3ccccc23)NC(=O)[C@H](CC(C)C)NC(=O)CNC(=O)[C@H](CCCNC(=N)N)NC(=O)c2ccc3c(c2)C(=O)OC32c3ccc(O)cc3Oc3cc(O)ccc32)C(=O)N[C@@H](CC(C)C)C(=O)N[C@@H](CO)C(=O)N1)C(=O)NCC(=O)N[C@@H](CCCNC(=N)N)C(=O)N[C@@H](CCCNC(=N)N)C(=O)NCC(=O)O; target or system = srtA; assay = binding, fluorescence polarization; setting = pH 7.5; measurement = Kd; value = 1.26 ± 0.13 µM
SMILES = C[N+](C)(C)[C@@H](Cc1c[nH]c(=S)[nH]1)C(=O)[O-]; target or system = egtUBC (Streptococcus pneumoniae, UniProt A0A0H2ZQB9, I243P/T274G); assay = binding; measurement = Kd; value = 43.5 µM
SMILES = Cc1oc(-c2cccc(Cl)c2)nc1CN1CCCC(C(=O)NCCc2ccc(Cl)cc2)C1 (stereo not shown); target or system = Vero-E6; assay = CellTiter-Glo ATP; setting = concentration not given, 72 h, retest 8-point duplicates; how to read = baseline: DMSO 0%, hyamine -100%, more negative, more toxic; measurement = cytotoxicity efficacy; value = -44.3%
SMILES = CC[C@H](C)[C@H](NC(=O)[C@H](CCCNC(=N)N)NC(=O)CNC(=O)[C@H](Cc1c[nH]c2ccccc12)NC(=O)[C@@H]1CSC[C@@H](NC(=O)[C@H](Cc2ccc(O)cc2)NC(=O)[C@H](Cc2c[nH]c3ccccc23)NC(=O)[C@H](CC(C)C)NC(=O)CNC(=O)[C@H](CCCNC(=N)N)NC(=O)c2ccc3c(c2)C(=O)OC32c3ccc(O)cc3Oc3cc(O)ccc32)C(=O)N[C@@H](Cc2ccccc2)C(=O)N[C@@H](CO)C(=O)N1)C(=O)NCC(=O)N[C@@H](CCCNC(=N)N)C(=O)N[C@@H](CCCNC(=N)N)C(=O)NCCCOCCOCCOCCCNC(=O)CCC(=O)NCCCOCCOCCOCCCNC(=O)CCC(=O)NCCCOCCOCCOCCCNC(=O)CCC(=O)N[C@@H](C)C(=O)O; target or system = srtA; assay = binding, fluorescence polarization; setting = pH 7.5; measurement = Kd; value = 9.9 ± 0.81 µM
SMILES = CO[C@@H]1[C@@H](OC(N)=O)[C@@H](O)[C@H](Oc2ccc3c(O)c(NC(=O)c4ccc(O)c(CC=C(C)C)c4)c(=O)oc3c2C)OC1(C)C; target or system = TetR-family regulator NalD (Pseudomonas aeruginosa, UniProt Q9HY46, F174A/H167A/N175A); measurement = Kd; value = 194 µM
SMILES = Nc1ncnc2c1ncn2[C@@H]1O[C@H](COP(=O)(O)OP(=O)(O)OP(=O)(O)O)[C@@H](O)[C@H]1O; target or system = matB (Rhodopseudomonas palustris, UniProt Q6ND88, C106A/K488A/Q457C/R286C); assay = binding; test system = HEPES buffer; setting = pH 7.0; measurement = Kd; value = 5.8 ± 0.3 µM
SMILES = CC[C@H](C)[C@H](NC(=O)[C@H](Cc1ccc(OP(=O)(O)O)cc1)NC(=O)[C@H](CCC(=O)O)NC(=O)[C@H](Cc1c[nH]cn1)NC(=O)CNC(=O)[C@H](CC(=O)O)NC(=O)[C@H](CO)NC(=O)[C@H](CO)NC(=O)[C@@H](NC(=O)[C@H](CO)NC(=O)[C@H](CCC(=O)O)NC(=O)c1ccc2c(c1)C(=O)OC21c2ccc(N(C)C)cc2Oc2cc(N(C)C)ccc21)C(C)C)C(=O)N[C@@H](Cc1ccc(O)cc1)C(=O)N[C@H](C(=O)N[C@@H](CC(=O)O)C(=O)N1CCC[C@H]1C(=O)N[C@@H](CCSC)C(=O)N[C@@H](CCC(N)=O)C(=O)N[C@@H](CC(=O)O)C(=O)O)C(C)C; target or system = Signal transducer and activator of transcription 2 SH2 domain; assay = binding; measurement = Kd; value = 1.58 µM
SMILES = CC[C@H](C)[C@H](NC(=O)[C@H](CCC(N)=O)NC(=O)[C@@H](NC(=O)[C@@H]1CCCN1C(=O)[C@@H](NC(=O)[C@H](CO)NC(=O)[C@H](Cc1ccccc1)NC(=O)[C@@H]1CCCN1C(=O)[C@H](CCC(N)=O)NC(=O)[C@@H](N)CCSC)[C@@H](C)CC)C(C)C)C(=O)N[C@H](C(=O)N[C@@H](CC(C)C)C(=O)N[C@@H](CCC(N)=O)C(=O)NCC(=O)N[C@@H](CO)C(=O)N[C@@H](CCCNC(=N)N)C(=O)N[C@@H](CCCNC(=N)N)C(=O)N[C@@H](CCCNC(=N)N)C(=O)N[C@@H](CCC(N)=O)C(=O)NCC(=O)N[C@@H](CCCNC(=N)N)C(N)=O)[C@@H](C)O; target or system = Kcnma1 (Mus musculus, UniProt Q08460); assay = ion current, blocker, inside-out patch clamp; test system = Xenopus oocytes; setting = +140 mV, added: 10 µM cytosolic Ca2+; measurement = Kd; value = 0.25 µM
SMILES = CC(C)(C)[C@]1(O)CC2OC(=O)CC23C(=O)OC2OC(=O)[C@H](O)C231 (stereo partly shown); target or system = Rdl (Drosophila melanogaster, UniProt P25123); test system = Drosophila; measurement = Kd; value = 0.136 µM
SMILES = CSCC[C@H](NC(=O)CNC(=O)[C@H](Cc1ccccc1)NC(=O)[C@H](CC(=O)O)NC(=O)CNC(=O)c1ccc2c(c1)C(=O)OC21c2ccc(N(C)C)cc2Oc2cc(N(C)C)ccc21)C(=O)N[C@@H](CO)C(=O)N[C@@H](CCCNC(=N)N)C(=O)N[C@@H](CC(=O)O)C(=O)N[C@H](C(=O)N[C@@H](Cc1ccc(OP(=O)(O)O)cc1)C(=O)N[C@@H](CO)C(=O)N[C@H](C(=O)N[C@@H](CC(=O)O)C(=O)N[C@@H](Cc1ccc(O)cc1)C(=O)N[C@@H](Cc1ccc(O)cc1)C(=O)N[C@@H](CCCNC(=N)N)C(=O)N[C@H](C(=O)N[C@@H](CC(=O)O)C(=O)O)C(C)C)[C@@H](C)O)C(C)C; target or system = Tyrosine-protein kinase TXK, SH2 domain (TXK, Homo sapiens, UniProt P42681); assay = binding; measurement = Kd; value = 1.32 µM
SMILES = C[S+](CC[C@H](N)C(=O)O)C[C@H]1O[C@@H](n2cnc3c(N)ncnc32)[C@H](O)[C@@H]1O (stereo partly shown); target or system = npmA (Escherichia coli, UniProt A8C927); measurement = Kd; value = ~80 µM

For quick reference, copied from above:
SMILES = CC(C)(C)[C@]1(O)CC2OC(=O)CC23C(=O)OC2OC(=O)[C@H](O)C231 (stereo partly shown); target or system = Rdl (Drosophila melanogaster, UniProt P25123); test system = Drosophila; measurement = Kd; value = 0.136 µM
SMILES = CSCC[C@H](NC(=O)CNC(=O)[C@H](Cc1ccccc1)NC(=O)[C@H](CC(=O)O)NC(=O)CNC(=O)c1ccc2c(c1)C(=O)OC21c2ccc(N(C)C)cc2Oc2cc(N(C)C)ccc21)C(=O)N[C@@H](CO)C(=O)N[C@@H](CCCNC(=N)N)C(=O)N[C@@H](CC(=O)O)C(=O)N[C@H](C(=O)N[C@@H](Cc1ccc(OP(=O)(O)O)cc1)C(=O)N[C@@H](CO)C(=O)N[C@H](C(=O)N[C@@H](CC(=O)O)C(=O)N[C@@H](Cc1ccc(O)cc1)C(=O)N[C@@H](Cc1ccc(O)cc1)C(=O)N[C@@H](CCCNC(=N)N)C(=O)N[C@H](C(=O)N[C@@H](CC(=O)O)C(=O)O)C(C)C)[C@@H](C)O)C(C)C; target or system = Tyrosine-protein kinase TXK, SH2 domain (TXK, Homo sapiens, UniProt P42681); assay = binding; measurement = Kd; value = 1.32 µM
